Measured values of several laboratories.
Each numbered part is a random draw from the data of one study; scales do not carry over between parts.
Sequence of UniProt Q13976 (whole entry, looked up): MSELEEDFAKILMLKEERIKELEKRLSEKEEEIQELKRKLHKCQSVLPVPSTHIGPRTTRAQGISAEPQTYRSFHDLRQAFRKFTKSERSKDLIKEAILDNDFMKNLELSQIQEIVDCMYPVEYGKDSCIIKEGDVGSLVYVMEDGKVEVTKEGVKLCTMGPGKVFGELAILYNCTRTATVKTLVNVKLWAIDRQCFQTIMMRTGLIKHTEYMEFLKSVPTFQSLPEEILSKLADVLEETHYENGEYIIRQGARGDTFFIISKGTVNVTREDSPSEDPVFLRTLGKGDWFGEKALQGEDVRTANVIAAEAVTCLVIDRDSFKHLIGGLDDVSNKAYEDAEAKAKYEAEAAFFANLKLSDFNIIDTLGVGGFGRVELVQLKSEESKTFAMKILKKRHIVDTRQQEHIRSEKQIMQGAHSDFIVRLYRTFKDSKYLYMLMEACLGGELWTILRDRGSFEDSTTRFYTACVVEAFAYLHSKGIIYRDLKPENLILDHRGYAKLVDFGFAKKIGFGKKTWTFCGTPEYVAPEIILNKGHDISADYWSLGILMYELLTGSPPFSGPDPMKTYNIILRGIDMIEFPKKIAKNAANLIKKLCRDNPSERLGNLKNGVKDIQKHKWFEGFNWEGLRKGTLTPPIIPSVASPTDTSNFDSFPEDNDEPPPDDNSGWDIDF
Sequence of UniProt O76039 (whole entry, looked up): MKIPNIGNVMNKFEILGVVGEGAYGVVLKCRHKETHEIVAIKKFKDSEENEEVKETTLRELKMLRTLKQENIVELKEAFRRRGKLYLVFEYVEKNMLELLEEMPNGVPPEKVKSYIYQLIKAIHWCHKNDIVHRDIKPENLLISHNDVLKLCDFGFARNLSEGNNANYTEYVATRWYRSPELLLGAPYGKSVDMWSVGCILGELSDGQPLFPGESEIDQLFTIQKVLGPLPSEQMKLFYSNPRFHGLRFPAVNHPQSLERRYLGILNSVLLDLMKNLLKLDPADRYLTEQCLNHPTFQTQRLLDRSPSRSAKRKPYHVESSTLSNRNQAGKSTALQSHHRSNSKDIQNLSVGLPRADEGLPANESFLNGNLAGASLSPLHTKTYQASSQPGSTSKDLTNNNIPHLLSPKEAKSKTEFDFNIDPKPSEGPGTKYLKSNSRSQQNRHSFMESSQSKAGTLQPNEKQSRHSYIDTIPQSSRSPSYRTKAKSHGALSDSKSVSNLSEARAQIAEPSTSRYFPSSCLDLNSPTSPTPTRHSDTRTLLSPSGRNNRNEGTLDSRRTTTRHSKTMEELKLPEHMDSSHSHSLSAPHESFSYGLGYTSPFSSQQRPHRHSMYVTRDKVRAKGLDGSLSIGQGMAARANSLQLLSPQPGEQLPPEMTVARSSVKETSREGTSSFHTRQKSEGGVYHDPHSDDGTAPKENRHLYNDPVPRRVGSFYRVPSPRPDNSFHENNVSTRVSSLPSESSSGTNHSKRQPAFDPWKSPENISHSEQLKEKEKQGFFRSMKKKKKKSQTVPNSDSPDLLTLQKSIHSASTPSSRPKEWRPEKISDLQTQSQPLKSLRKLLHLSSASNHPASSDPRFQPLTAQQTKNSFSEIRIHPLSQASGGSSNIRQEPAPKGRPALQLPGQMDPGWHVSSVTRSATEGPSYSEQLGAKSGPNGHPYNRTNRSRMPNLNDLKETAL
Sequence of UniProt P51813 (whole entry, looked up): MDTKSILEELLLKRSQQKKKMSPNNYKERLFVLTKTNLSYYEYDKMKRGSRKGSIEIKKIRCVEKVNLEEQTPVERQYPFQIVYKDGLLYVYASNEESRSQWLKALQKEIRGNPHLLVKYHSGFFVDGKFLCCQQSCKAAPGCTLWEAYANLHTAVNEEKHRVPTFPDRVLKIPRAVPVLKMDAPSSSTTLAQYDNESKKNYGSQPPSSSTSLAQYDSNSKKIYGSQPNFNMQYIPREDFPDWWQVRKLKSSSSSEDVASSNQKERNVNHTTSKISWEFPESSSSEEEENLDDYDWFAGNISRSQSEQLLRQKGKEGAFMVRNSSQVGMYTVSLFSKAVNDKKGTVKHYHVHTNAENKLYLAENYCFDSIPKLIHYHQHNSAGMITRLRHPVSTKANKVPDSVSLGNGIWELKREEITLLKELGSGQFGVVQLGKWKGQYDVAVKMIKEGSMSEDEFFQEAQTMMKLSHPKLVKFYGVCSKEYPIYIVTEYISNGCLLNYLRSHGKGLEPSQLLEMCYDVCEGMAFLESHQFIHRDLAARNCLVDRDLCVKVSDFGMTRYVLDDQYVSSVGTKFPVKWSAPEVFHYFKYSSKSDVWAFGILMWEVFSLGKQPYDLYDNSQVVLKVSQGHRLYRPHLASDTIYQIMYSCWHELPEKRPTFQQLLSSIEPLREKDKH
Sequence of UniProt Q9Y3S1 (whole entry, looked up): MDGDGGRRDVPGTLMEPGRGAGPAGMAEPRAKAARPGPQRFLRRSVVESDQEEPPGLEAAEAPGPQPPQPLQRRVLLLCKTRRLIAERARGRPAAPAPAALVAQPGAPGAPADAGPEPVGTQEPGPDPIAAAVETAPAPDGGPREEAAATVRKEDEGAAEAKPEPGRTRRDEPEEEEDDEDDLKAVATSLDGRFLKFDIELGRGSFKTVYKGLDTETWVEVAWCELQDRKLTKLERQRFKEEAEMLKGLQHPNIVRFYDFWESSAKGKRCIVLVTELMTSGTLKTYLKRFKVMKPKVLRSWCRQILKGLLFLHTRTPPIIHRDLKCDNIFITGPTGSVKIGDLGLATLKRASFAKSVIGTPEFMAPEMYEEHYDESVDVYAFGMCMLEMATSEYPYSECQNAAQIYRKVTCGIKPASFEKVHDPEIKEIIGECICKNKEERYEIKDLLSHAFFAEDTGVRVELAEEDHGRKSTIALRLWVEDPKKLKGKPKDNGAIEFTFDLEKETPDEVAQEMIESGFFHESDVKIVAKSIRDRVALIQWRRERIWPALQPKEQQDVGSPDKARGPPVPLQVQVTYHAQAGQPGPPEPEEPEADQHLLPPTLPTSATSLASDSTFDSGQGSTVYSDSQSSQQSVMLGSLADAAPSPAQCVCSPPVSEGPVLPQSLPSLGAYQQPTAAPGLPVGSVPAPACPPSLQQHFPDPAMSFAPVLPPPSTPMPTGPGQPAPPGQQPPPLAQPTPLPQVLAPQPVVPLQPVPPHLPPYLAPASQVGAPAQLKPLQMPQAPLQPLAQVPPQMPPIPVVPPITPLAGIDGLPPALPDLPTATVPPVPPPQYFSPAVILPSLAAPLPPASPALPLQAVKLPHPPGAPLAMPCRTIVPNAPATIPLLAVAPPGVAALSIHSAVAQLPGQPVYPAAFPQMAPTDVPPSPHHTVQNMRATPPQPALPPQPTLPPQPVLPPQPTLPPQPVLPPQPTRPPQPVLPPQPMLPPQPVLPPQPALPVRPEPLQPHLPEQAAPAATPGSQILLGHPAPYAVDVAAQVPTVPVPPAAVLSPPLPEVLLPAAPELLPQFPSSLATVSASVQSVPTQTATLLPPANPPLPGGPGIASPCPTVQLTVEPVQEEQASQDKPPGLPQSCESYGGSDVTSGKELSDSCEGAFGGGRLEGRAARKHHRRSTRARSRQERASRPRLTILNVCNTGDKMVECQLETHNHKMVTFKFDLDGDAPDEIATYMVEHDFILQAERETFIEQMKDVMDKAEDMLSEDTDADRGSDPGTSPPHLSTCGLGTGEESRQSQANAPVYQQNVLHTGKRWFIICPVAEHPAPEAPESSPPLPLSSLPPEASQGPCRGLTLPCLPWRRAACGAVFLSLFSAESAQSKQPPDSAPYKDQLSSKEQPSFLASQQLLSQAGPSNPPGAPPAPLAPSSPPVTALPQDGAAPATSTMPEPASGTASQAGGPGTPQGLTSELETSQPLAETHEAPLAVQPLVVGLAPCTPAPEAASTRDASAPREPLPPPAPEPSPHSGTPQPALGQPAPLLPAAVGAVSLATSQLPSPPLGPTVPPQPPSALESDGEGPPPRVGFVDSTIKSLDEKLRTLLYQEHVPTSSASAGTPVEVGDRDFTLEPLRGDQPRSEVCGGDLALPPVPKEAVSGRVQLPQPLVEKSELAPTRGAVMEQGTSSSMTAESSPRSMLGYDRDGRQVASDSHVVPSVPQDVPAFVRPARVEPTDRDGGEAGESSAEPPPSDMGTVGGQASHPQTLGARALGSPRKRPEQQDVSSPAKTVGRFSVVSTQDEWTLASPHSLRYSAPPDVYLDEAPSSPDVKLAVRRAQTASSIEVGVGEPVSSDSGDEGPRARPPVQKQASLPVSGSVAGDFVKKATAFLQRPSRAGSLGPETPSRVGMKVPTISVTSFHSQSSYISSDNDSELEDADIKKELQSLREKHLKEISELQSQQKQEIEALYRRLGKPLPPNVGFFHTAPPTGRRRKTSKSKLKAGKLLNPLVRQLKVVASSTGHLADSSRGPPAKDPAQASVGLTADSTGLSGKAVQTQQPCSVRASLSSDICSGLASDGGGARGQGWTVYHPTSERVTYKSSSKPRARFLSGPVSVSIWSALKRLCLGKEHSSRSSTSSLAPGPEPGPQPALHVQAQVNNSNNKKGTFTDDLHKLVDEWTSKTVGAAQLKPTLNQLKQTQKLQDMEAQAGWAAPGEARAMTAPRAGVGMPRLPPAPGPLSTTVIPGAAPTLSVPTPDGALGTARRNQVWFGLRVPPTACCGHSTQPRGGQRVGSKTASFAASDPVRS
Sequence of UniProt P53778 (whole entry, looked up): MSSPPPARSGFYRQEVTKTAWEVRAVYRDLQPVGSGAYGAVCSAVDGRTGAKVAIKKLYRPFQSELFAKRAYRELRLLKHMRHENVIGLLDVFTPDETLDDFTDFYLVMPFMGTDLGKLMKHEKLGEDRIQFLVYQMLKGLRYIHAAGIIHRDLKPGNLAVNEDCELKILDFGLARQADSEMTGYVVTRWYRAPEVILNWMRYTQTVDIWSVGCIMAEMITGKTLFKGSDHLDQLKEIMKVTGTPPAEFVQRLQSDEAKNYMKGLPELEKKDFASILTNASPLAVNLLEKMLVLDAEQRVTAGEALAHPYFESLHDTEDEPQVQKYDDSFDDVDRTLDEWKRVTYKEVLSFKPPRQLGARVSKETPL

Set 1
Organism: Sarcocystis neurona
Effect on: parasite growth
Tested at: 10 µM
Time: 96 h
Setting: first screen
Baseline: untreated
| Structure (SMILES) | log2 fold change |
| --- | --- |
| CN(C)CCCN1c2ccccc2CCc2ccc(Cl)cc21 | -0.3 |
| CC[C@H]1OC(=O)[C@H](C)C(=O)[C@H](C)[C@@H](O[C@@H]2O[C@H](C)C[C@H](N(C)C)[C@H]2O)[C@](C)(OC)C[C@@H](C)C(=O)[C@H](C)[C@H]2N(CCCCn3cnc(-c4cccnc4)c3)C(=O)O[C@]12C | -0.18 |
| COC(=O)C1=C(C)NC(C)=C(C(=O)OCCN(C)Cc2ccccc2)C1c1cccc([N+](=O)[O-])c1 (stereo not drawn) | 0.37 |
| Nc1nc(Cl)nc2c1ncn2[C@H]1C[C@H](O)[C@@H](CO)O1 | 0.09 |
| CN(C)CCOC(C)(c1ccccc1)c1ccccn1 (stereo not drawn) | 0.11 |
| CCCC1O[C@@H]2C[C@H]3[C@@H]4CCC5=CC(=O)C=C[C@]5(C)[C@H]4[C@@H](O)C[C@]3(C)[C@]2(C(=O)CO)O1 (stereo partly drawn) | 0.33 |
| Cc1c(O)cccc1C(=O)N[C@@H](CSc1ccccc1)[C@H](O)CN1C[C@H]2CCCC[C@H]2C[C@H]1C(=O)NC(C)(C)C | -1.85 |
| CC[C@H]1OC(=O)[C@H](C)[C@@H](O[C@H]2C[C@@](C)(OC)[C@@H](O)[C@H](C)O2)[C@H](C)[C@@H](O[C@@H]2O[C@H](C)C[C@H](N(C)C)[C@H]2O)[C@](C)(O)C[C@@H](C)CN(C)[C@H](C)[C@@H](O)[C@]1(C)O | -0.15 |
| C[C@@H]1C[C@H]2[C@@H]3CCC4=CC(=O)C=C[C@]4(C)[C@@]3(F)[C@@H](O)C[C@]2(C)[C@@]1(O)C(=O)CO | -0.18 |
| CC(=O)/N=c1/sc(S(N)(=O)=O)nn1C | 0.0661 |
| COc1cc2c(cc1OC)C(=O)C(CC1CCN(Cc3ccccc3)CC1)C2 (stereo not drawn) | 0.11 |

Set 2
Structure (SMILES): O=C(NC[C@@H]1[C@H]2CN(C(=O)OCc3cc(C(F)(F)F)cc(C(F)(F)F)c3)C[C@@H]12)c1ccc2[nH]nnc2c1
Effect on: cell-free assay
Method: competition with immobilised ligand
Tested at: 1 µM
| target | remaining binding [%] |
| --- | --- |
| Tyrosine-protein kinase ABL1, non-phosphorylated (ABL1, Homo sapiens, UniProt P00519, H396P) | 84 |
| cGMP-dependent protein kinase 1 (PRKG1, Homo sapiens, UniProt Q13976) | 83 |
| Serine/threonine-protein kinase 4 (STK4, Homo sapiens, UniProt Q13043) | 100 |
| Mitogen-activated protein kinase kinase kinase 11 (MAP3K11, Homo sapiens, UniProt Q16584) | 99 |
| Cyclin-dependent kinase-like 5 (CDKL5, Homo sapiens, UniProt O76039) | 100 |
| Citron Rho-interacting kinase (CIT, Homo sapiens, UniProt O14578) | 100 |
| Homeodomain-interacting protein kinase 2 (HIPK2, Homo sapiens, UniProt Q9H2X6) | 100 |
| Serine/threonine-protein kinase DCLK3 (DCLK3, Homo sapiens, UniProt Q9C098) | 100 |
| Mitogen-activated protein kinase kinase kinase 14 (MAP3K14, Homo sapiens, UniProt Q99558) | 77 |
| Fibroblast growth factor receptor 4 (FGFR4, Homo sapiens, UniProt P22455) | 82 |
| Cytoplasmic tyrosine-protein kinase BMX (BMX, Homo sapiens, UniProt P51813) | 81 |
| Phosphatidylinositol 4-phosphate 3-kinase C2 domain-containing subunit beta (PIK3C2B, Homo sapiens, UniProt O00750) | 65 |
| Fibroblast growth factor receptor 2 (FGFR2, Homo sapiens, UniProt P21802) | 100 |
| Serine/threonine-protein kinase 38 (STK38, Homo sapiens, UniProt Q15208) | 75 |
| Dual specificity mitogen-activated protein kinase kinase 2 (MAP2K2, Homo sapiens, UniProt P36507) | 84 |

Set 3
Structure (SMILES): O=C1NC(=O)c2c1c1c3ccccc3[nH]c1c1[nH]c3cc(Br)ccc3c21
Effect on: enzyme activity
Mode: inhibitor
Tested at: 0.5 µM
Baseline: control
| target | remaining activity [%] |
| --- | --- |
| MAP kinase-interacting serine/threonine-protein kinase 2 (MKNK2, Homo sapiens, UniProt Q9HBH9) | 44 |
| Serine/threonine-protein kinase Nek4 (NEK4, Homo sapiens, UniProt P51957) | 89 |
| Leucine-rich repeat serine/threonine-protein kinase 2 (LRRK2, Homo sapiens, UniProt Q5S007) | 49.8 |
| Casein kinase II subunit alpha (CSNK2A1, Homo sapiens, UniProt P68400) | 93.1 |
| Interleukin-1 receptor-associated kinase 4 (IRAK4, Homo sapiens, UniProt Q9NWZ3) | 76.2 |
| Casein kinase I isoform alpha (CSNK1A1, Homo sapiens, UniProt P48729) | 95.4 |
| Tyrosine-protein kinase BTK (BTK, Homo sapiens, UniProt Q06187) | 74.8 |
| Dual specificity mitogen-activated protein kinase kinase 6 (MAP2K6, Homo sapiens, UniProt P52564) | 94.2 |
| Serine/threonine-protein kinase WNK2 (WNK2, Homo sapiens, UniProt Q9Y3S1) | 92.1 |
| Tyrosine-protein kinase Lyn (LYN, Homo sapiens, UniProt P07948) | 93.2 |
| Cyclin-dependent kinase 9, with cyclin T1 (CDK9, Homo sapiens, UniProt P50750) | 87.5 |
| RAC-gamma serine/threonine-protein kinase (AKT3, Homo sapiens, UniProt Q9Y243) | 91.1 |
| Protein kinase C iota type (PRKCI, Homo sapiens, UniProt P41743) | 96.2 |
| Mitogen-activated protein kinase 12 (MAPK12, Homo sapiens, UniProt P53778) | 100 |
| Mast/stem cell growth factor receptor Kit (KIT, Homo sapiens, UniProt P10721) | 128 |
| Serine/threonine-protein kinase Chk1 (CHEK1, Homo sapiens, UniProt O14757) | 79.7 |
| cGMP-dependent protein kinase 1 (PRKG1, Homo sapiens, UniProt Q13976) | 76 |
| Serine/threonine-protein kinase PLK2 (PLK2, Homo sapiens, UniProt Q9NYY3) | 93.7 |
| Ephrin type-A receptor 5 (EPHA5, Homo sapiens, UniProt P54756) | 90.5 |
| Protein kinase C delta type (PRKCD, Homo sapiens, UniProt Q05655) | 99.1 |
| Mitogen-activated protein kinase kinase kinase kinase 2 (MAP4K2, Homo sapiens, UniProt Q12851) | 74.1 |
| Mitogen-activated protein kinase 13 (MAPK13, Homo sapiens, UniProt O15264) | 99.1 |

Set 4
Cell line: HaCaT
Tested at: 100 µM
Time: 18 h
| SMILES | viability |
| --- | --- |
| CC[C@H]1OC(=O)[C@H](C)[C@@H](O[C@H]2C[C@@](C)(OC)[C@@H](O)[C@H](C)O2)[C@H](C)[C@@H](O[C@@H]2O[C@H](C)C[C@H](N(C)C)[C@H]2O)[C@](C)(O)C[C@@H](C)C(=O)[C@H](C)[C@@H](O)[C@]1(C)O | 98% |
| O=c1oc2cc(O)ccc2s1 | 115% |
| Cc1ccc(/C(=C\CN2CCCC2)c2ccccn2)cc1 | 114% |
| O=C(C[S+]([O-])Cc1ccco1)NC/C=C\COc1cc(CN2CCCCC2)ccn1 (stereo not drawn) | 112% |
| Cc1nnc(SCC2=C(C(=O)O)N3C(=O)[C@@H](NC(=O)Cn4cnnn4)[C@H]3SC2)s1 | 110% |
| c1ccc2c(CC3=NCCN3)cccc2c1 | 107% |
| CN(Cc1cnc2nc(N)nc(N)c2n1)c1ccc(C(=O)N[C@@H](CCC(=O)O)C(=O)O)cc1 | 84.9% |
| CCN1CCN(c2cc(-c3ccc(F)cc3)c3c(n2)CCCCCC3)CC1 | 80.8% |
| Clc1ccccc1CN1CCc2sccc2C1 | 26.2% |
| C#CCN[C@@H]1CCc2ccccc21 | 115% |
| O=C(O)c1cccc(-c2noc(-c3ccccc3F)n2)c1 | 93.2% |
| CN1CCC[C@@H]1Cc1c[nH]c2ccc(CCS(=O)(=O)c3ccccc3)cc12 | 95.7% |

Some of these lines once more (set 1):
| Structure (SMILES) | log2 fold change |
| --- | --- |
| CN(C)CCCN1c2ccccc2CCc2ccc(Cl)cc21 | -0.3 |
| CC[C@H]1OC(=O)[C@H](C)C(=O)[C@H](C)[C@@H](O[C@@H]2O[C@H](C)C[C@H](N(C)C)[C@H]2O)[C@](C)(OC)C[C@@H](C)C(=O)[C@H](C)[C@H]2N(CCCCn3cnc(-c4cccnc4)c3)C(=O)O[C@]12C | -0.18 |
| COC(=O)C1=C(C)NC(C)=C(C(=O)OCCN(C)Cc2ccccc2)C1c1cccc([N+](=O)[O-])c1 (stereo not drawn) | 0.37 |
| Nc1nc(Cl)nc2c1ncn2[C@H]1C[C@H](O)[C@@H](CO)O1 | 0.09 |
| CN(C)CCOC(C)(c1ccccc1)c1ccccn1 (stereo not drawn) | 0.11 |
| CCCC1O[C@@H]2C[C@H]3[C@@H]4CCC5=CC(=O)C=C[C@]5(C)[C@H]4[C@@H](O)C[C@]3(C)[C@]2(C(=O)CO)O1 (stereo partly drawn) | 0.33 |
| Cc1c(O)cccc1C(=O)N[C@@H](CSc1ccccc1)[C@H](O)CN1C[C@H]2CCCC[C@H]2C[C@H]1C(=O)NC(C)(C)C | -1.85 |
